Experimental data collected from several papers.
± gives the spread as reported.
TDP1: Tyrosyl-DNA phosphodiesterase 1 (TDP1, Homo sapiens, UniProt Q9NUW8)
Sequence of UniProt Q9NUW8 (whole entry, looked up): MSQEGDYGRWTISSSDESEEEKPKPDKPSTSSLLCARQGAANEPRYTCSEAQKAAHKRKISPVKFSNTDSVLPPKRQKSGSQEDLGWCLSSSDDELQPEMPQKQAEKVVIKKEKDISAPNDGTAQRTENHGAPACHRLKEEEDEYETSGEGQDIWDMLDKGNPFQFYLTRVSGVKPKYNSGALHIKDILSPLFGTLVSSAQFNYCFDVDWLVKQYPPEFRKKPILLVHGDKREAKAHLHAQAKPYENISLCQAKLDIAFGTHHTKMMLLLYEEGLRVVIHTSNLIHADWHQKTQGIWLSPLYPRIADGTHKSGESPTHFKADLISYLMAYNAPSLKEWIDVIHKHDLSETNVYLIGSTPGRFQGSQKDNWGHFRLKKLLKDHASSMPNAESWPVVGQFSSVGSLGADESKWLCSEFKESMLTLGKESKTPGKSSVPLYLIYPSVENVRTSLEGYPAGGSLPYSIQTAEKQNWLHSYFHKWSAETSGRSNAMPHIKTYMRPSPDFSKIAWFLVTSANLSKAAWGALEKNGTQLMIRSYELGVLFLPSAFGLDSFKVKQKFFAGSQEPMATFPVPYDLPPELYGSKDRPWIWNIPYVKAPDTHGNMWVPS

C[N+](C)(CI)CCO — IC50 (HepG2; cell viability; galactose medium; 24 h, mitochondrial toxicity): > 150 µM
COc1c(C)c(OC(=O)c2ccc3ccccc3c2)c(C)c(O)c1C(=O)/C=C/c1ccccc1 — IC50 (normal human liver cell line; cytotoxicity, SRB; 72 h): > 50 µM
COc1ccc(NC2(C#N)C(=O)Nc3ccccc32)cc1 (stereo not drawn) — IC50 (Uncharacterized protein (Trypanosoma brucei brucei, UniProt Q386Q8); enzyme activity, inhibitor, coupled colorimetric; together with: E. coli pyrophosphatase coupling): 32.2 µM
NC1=C(Cl)C(=O)c2cccc([N+](=O)[O-])c2C1=O — IC50 (MRC-5; cytotoxicity, MTT; 48 h, 10% FBS): 15.2 ± 0.4 µM
CCCCCCCCCCCC(=O)Oc1c(C)c(OC)c2c(/C=C/c3ccccc3)c(CCCCCCCCCC)c(=O)oc2c1C — IC50 (normal human liver cell line; cytotoxicity, SRB; 72 h): > 50 µM
Cn1cc(C=NOCc2ccc3nc(-c4ccccc4)c(Nc4ccc(C(=O)O)cc4)n3c2)c(-c2ccc3c(c2)OCCCO3)n1 (mixture of isomers) — inhibition (TDP1; enzyme activity, inhibitor; 100 µM, unpurified compound): 9.7%
COc1ccc2ncc(F)c(C[C@H](O)[C@H]3OC[C@H](NCc4ccc(Cl)c(Cl)c4)CO3)c2c1 — IC50 (HepG2; cytotoxicity; 24 h): 54.5 µg/mL
O=C1C(Br)=C(Br)C(=O)c2ccccc21 — IC50 (MRC-5; cytotoxicity, MTT; 48 h, 10% FBS): 94.5 ± 2.84 µM
COc1ccc2nccc(CC[C@H]3OC[C@H](NC(=O)c4ccc(Cl)c(Cl)c4)CO3)c2c1 — IC50 (HepG2; cytotoxicity; 24 h): 6.25 µg/mL
O=C(O)c1ccc(Nc2c(-c3ccccc3)nc3ccc(CON=Cc4ccc(CN5C(=O)c6ccccc6C5=O)o4)cn23)cc1 — inhibition (TDP1; enzyme activity, inhibitor; 100 µM, unpurified compound): 35.1%
COc1ccc2ncc(F)c(CC[C@@]3(O)CO[C@@H]4[C@@H](NCc5ccc(C)cc5)CO[C@@H]43)c2n1 — IC50 (HepG2; cytotoxicity; 24 h): 117 µg/mL
CCCCCCCCCC(=O)Oc1c(C)c(OC)c2c(c1C)OC(=O)C(CCCCCCCC)C2(O)C=Cc1ccccc1 (stereo not drawn) — IC50 (normal human liver cell line; cytotoxicity, SRB; 72 h): > 50 µM
